Measured values pooled from the literature.
Each numbered part is a random draw from the data of one study; scales do not carry over between parts. Substitutions count along the parent as printed.

Sample 1
Target: CCND2, cyclin fold, Cln2 fusion (human)
Method: yeast growth competition, sequencing
Medium: yeast
Notes: weak parent motif
Relative to: not given
Reading: higher = stronger binding
Starting sequence: viral docking peptide; TSVRRALFTGGSD
`TSCRRALFTGGSD [V3C]`: “normalised enrichment score” 0.197.
`TSVRRALFYGGSD [T9Y]`: “normalised enrichment score” 0.419.
`TSKRRALFTGGSD [V3K]`: “normalised enrichment score” -0.33.
`TSVRRAMFTGGSD [L7M]`: “normalised enrichment score” 0.312.
Under “normalised enrichment score”, `TSVRRALFTGGAD [S12A]` is recorded as 0.0943.
`TSVGRALFTGGSD [R4G]`: “normalised enrichment score” -0.607.
`TSVRRALFTSGSD [G10S]` — result for “normalised enrichment score”: 0.0228.
`TSVRDALFTGGSD [R5D]`: “normalised enrichment score” -0.0908.
`TSVRRALFTGWSD [G11W]`: “normalised enrichment score” -0.148.
`TSVRSALFTGGSD [R5S]`: “normalised enrichment score” 0.322.
`TSVKRALFTGGSD [R4K]`: “normalised enrichment score” -0.031.
For `TSVRRALFTGYSD [G11Y]`, “normalised enrichment score” read -0.234.

Sample 2
Target: CEP164, C-terminal peptide (human)
Method: DHFR complementation, deep sequencing
Medium: yeast
Notes: single substitutions, model-inferred values
Relative to: wild type
Reading: higher = weaker binding
Starting sequence: PDZK1, PDZ domain 2 (human); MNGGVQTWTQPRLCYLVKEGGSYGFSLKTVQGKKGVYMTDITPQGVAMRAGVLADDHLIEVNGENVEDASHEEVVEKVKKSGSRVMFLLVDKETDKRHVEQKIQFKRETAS; partner HNRVKVYRF
Under “binding free energy change”, `S70V` is recorded as 0.119 kcal/mol.
For `K102L`, “binding free energy change” read -0.0415 kcal/mol.
Under “binding free energy change”, `E93A` is recorded as -0.0933 kcal/mol.
For `M86H`, “binding free energy change” read -0.0117 kcal/mol.
`M38L`: “binding free energy change” 0.176 kcal/mol.
For `T42N`, “binding free energy change” read 0.426 kcal/mol.
`R107Y`: “binding free energy change” -0.0716 kcal/mol.
For `A110F`, “binding free energy change” read -0.142 kcal/mol.

Sample 3
Target: Sal-like protein 4, full length isoform A (SALL4, Homo sapiens, UniProt Q9UJQ4, residues 1-1053)
UniProt Q9UJQ4, sequence (whole entry, looked up): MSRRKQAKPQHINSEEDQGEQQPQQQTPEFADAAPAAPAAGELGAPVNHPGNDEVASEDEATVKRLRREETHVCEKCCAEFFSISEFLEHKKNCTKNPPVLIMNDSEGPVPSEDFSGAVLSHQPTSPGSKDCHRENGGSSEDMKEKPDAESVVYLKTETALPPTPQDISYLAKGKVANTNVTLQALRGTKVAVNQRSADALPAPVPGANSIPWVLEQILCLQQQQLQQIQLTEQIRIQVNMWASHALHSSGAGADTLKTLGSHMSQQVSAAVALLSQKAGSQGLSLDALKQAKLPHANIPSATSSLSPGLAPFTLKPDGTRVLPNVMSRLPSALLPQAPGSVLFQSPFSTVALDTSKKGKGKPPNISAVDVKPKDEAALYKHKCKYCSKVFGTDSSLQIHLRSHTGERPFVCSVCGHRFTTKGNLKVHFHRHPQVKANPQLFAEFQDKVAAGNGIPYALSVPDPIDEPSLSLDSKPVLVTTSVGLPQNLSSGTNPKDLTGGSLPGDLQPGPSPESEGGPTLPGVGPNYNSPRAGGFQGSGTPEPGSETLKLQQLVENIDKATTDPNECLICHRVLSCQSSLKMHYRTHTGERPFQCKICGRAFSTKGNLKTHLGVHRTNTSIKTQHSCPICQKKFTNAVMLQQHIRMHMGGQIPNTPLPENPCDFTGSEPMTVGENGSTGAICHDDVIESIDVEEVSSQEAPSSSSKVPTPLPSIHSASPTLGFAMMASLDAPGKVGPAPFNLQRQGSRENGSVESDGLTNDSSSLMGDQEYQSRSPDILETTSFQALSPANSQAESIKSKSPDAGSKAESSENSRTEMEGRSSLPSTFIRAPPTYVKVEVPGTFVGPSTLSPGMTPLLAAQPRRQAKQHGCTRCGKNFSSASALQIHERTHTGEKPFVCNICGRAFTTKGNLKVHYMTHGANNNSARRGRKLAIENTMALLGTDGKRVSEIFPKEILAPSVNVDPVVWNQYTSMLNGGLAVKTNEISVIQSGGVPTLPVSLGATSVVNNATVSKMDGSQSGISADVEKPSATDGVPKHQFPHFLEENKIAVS
Method: universal PBM
Molecule type: double-stranded DNA, one strand shown
Medium: in vitro
Tested at: 600 nM
Notes: 8-mer, flanks averaged, mean of replicates
Reading: higher = stronger binding
`CAAAAATC` has an E-score of 0.271.
For `CCCGGGCG`, the E-score was -0.322.
`ATGACCTG` has an E-score of 0.0231.
`CCATTATA` gave an E-score of 0.278.
The E-score of `AGTTGTCG` is reported as -0.0797.
With `GAACGTAA` the E-score was 0.0375.
The E-score of `CGGGGCGA` is reported as -0.237.
The E-score of `CTATGCAA` is reported as 0.0664.

Single results of other studies
Starting sequence: PafA, mature enzyme, eGFP fusion (Elizabethkingia meningoseptica, UniProt Q9KJX5); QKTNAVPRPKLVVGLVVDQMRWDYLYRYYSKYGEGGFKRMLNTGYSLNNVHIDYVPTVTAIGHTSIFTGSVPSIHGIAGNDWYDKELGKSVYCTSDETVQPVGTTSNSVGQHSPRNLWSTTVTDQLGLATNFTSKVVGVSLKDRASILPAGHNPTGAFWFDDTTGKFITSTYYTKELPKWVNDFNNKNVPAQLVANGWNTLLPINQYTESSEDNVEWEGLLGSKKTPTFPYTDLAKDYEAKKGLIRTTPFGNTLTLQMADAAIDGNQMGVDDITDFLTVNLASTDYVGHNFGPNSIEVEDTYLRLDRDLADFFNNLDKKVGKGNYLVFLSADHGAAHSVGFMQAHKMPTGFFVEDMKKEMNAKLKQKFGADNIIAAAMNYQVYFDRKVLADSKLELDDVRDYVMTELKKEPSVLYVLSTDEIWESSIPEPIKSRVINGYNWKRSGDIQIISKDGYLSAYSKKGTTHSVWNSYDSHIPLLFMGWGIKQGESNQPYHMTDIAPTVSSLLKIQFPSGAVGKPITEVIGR
Under “oxyanion analog dissociation constant”, `K242G` is recorded as 1.54 µM (tungstate, free oxyanion; microfluidic competitive inhibition; in vitro, cell-free expressed; not given, derived from inhibition constants, unchanged parent 2230 nM; lower = stronger binding).

For quick reference, copied from above (sample 3):
`ATGACCTG` has an E-score of 0.0231.
`CCATTATA` gave an E-score of 0.278.
The E-score of `AGTTGTCG` is reported as -0.0797.
With `GAACGTAA` the E-score was 0.0375.
